Measurements of several laboratories.
Every numbered part comes from another study and shows a few of its results, in no order. Substitutions count along the parent as printed.

Sample 1 — technique: competition protein-binding microarray; molecule type: double-stranded DNA, one strand shown; sample: in vitro; concentration: 2 µM; with: Cbf1 competitor, 0.05 µM; reading: higher = stronger binding; all sequences stand within: … GTCTTGATTCGCTTGACGCTGCTG
Target: Phosphate system positive regulatory protein PHO4, full length, GST-tagged (PHO4, Saccharomyces cerevisiae, UniProt P07270, residues 1-312)
Setting: whole 60-bp probe, lowest competitor level
Residues (chain): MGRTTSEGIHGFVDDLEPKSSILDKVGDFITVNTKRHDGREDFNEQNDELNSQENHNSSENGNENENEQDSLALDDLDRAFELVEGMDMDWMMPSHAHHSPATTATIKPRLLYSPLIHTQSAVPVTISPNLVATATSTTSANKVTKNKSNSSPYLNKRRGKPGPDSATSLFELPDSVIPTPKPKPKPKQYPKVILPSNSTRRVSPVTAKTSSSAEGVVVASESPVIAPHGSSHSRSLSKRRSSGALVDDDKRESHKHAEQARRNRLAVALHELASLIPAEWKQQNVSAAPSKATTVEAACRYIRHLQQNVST
Oligonucleotide	fluorescence intensity
CAGCTGGTCTCCCAGCACGTGGCCTGGAGCCCAGCC	15700 a.u.
TGCGCAACAACTTGTCATGTGGGTGTATGTCTAGAA	8310 a.u.
CGTCCTAGTGATTTTCACGTGCAATCCATGAGGAAG	14500 a.u.
CATACCCAACCTTGTCACTGTACTTAAGATATTTGT	3710 a.u.
TTTACCCATAAGTCCCACGATTATCCACTTTTTAAT	7720 a.u.

Sample 2 — target: CCND2, cyclin fold, Cln2 fusion (human); technique: yeast growth competition, sequencing; sample: yeast; setting: weak parent motif; reference: not given; reading: higher = stronger binding
Parent: CDKN1B docking peptide (human); PSACRNLFGPVDH; partner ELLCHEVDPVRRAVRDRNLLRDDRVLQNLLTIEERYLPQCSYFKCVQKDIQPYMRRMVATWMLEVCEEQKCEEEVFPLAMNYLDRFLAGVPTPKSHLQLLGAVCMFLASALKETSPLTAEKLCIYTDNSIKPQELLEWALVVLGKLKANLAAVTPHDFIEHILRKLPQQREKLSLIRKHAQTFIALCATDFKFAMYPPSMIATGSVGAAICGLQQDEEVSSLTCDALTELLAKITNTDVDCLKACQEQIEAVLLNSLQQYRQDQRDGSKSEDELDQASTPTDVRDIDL
Substitution	normalised enrichment score
PSACRNLFGPVNH [D12N]	0.318
PSACRNLFHPVDH [G9H]	0.11
PSACRNLFGYVDH [P10Y]	0.462
PSACRNLFGVVDH [P10V]	-0.0772
PSACRNLCGPVDH [F8C]	-0.188
PSACRNLFGCVDH [P10C]	0.0895

Sample 3 — technique: protein-binding microarray; molecule type: double-stranded DNA, one strand shown; sample: in vitro; concentration: 2540 nM top; setting: 60-bp whole probe; with: salmon DNA 0.4 mg/ml; reference: random background probes; reading: higher = stronger binding; all sequences stand within: GCCTAGCAC … GTCTTGATTCGCTTGACGCTGCTG
Target: Interferon regulatory factor 3, full length, phosphomimetic (IRF3, Homo sapiens, UniProt Q14653, residues 1-427, S386D/S396D/S398D/S402D/T404D/S405D)
Chain of UniProt Q14653 (whole entry, unmodified, looked up): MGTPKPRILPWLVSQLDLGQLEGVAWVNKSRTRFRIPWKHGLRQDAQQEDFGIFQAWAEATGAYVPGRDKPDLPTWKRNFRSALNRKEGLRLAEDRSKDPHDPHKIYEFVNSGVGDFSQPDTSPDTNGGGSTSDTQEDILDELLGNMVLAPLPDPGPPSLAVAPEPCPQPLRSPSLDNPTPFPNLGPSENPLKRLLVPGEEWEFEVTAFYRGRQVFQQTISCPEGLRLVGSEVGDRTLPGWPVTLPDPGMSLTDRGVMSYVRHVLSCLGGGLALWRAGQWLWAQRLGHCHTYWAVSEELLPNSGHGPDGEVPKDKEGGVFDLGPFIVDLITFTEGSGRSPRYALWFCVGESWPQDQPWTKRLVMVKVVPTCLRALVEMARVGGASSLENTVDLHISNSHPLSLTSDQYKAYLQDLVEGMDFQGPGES
Oligonucleotide	fitted relative affinity [z-score]
TTAGATTTCAGTATCTATTAGTGCTAG	2.07
GTAGAACTGAGTTTCGATTAGTGCTAG	2.65
TTAGGACTGCGTATCGGTTAGTGCTAG	0.839
CAGCCAATCAGGACTCAGGGAGTGCTA	-0.481
TTGGTGCTCATTTTTTTTGCGTGCTAG	-0.115
GTAGATATCAGTTTCGATTAGTGCTAG	4.66

Further values, each from its own experiment
Molecule	target	test	system	setting	how to read	quantity	value
PhoQ, residues 284 288 289 292 302 303 ALASRC	PhoP, residues 12 14 15 18 19 VHSCL (Escherichia coli, UniProt P23836)	Sort-seq, item: YFP reporter	E. coli	PhoQ-PhoP variant library, with: 10 µM Mg2+	reference: high Mg2+ state, higher = stronger signaling	fold induction	18.9

Excerpt of the above (sample 3):
Oligonucleotide	fitted relative affinity [z-score]
CAGCCAATCAGGACTCAGGGAGTGCTA	-0.481
